Results pooled from the literature.
Protocols differ between the studies behind these lines.
Target: Calcium/calmodulin-dependent protein kinase type II subunit delta (CAMK2D, Homo sapiens, UniProt Q13557)

COc1cc(Nc2nccc(-c3cnn4nc(OC)ccc34)n2)cc(C(F)(F)F)c1  remaining binding (binding, competition with immobilised ligand; 1 µM): 74%
COc1ccc(NC(=O)Nc2ccc3c(c2)C(=O)N(C(C)CO)CC(C)C(CN(C)Cc2ccc4c(c2)OCO4)O3)cc1 (stereo not shown)  remaining activity (kinase activity, KinaseProfiler; 0.03 µM, species human; reference: control): 105%
C=CC(=O)Nc1cc(-c2nn(C3CCN(CCNC(=O)[C@H](C)CCC45CC6CC(CC(C6)C4)C5)CC3)c3ncnc(N)c23)ccc1Oc1ccccc1  inhibition (inhibitor, KiNativ profiling; biochemical; 2 µM): 11.9%
Cc1cnc2nc1Nc1cccc(c1)COC/C=C/COCc1cc(ccc1OCCN1CCOCC1)N2  remaining binding (binding; 0.1 µM): 100%
Nc1ncc(-c2cc(-c3cnn(CC(F)(F)F)c3)ncc2F)nc1C(=O)NC1CNCC(F)C1 (stereo not shown)  remaining activity (enzyme activity; 1 µM; reference: DMSO control): 88.3%
CN1CCN(Cc2ccc(-c3ccc(CO[C@H]4CCC[C@@H]4NC(=O)c4cc(-c5cnn(C)c5)cnc4N)cc3)cc2)CC1  inhibition (enzyme activity, inhibitor; 0.1 µM): 8%
C=CC(=O)N1CCc2ccc(-n3c(=O)ccc4cnc5ccc(-c6cnn(C)c6)cc5c43)cc21  remaining binding (KINOMEscan; 1 µM; reference: DMSO control): 94%
CCN1CCN(Cc2ccc(C(=O)Nc3ccc(C)c(NCc4cnc5[nH]ccc5c4OC)c3)cc2C(F)(F)F)CC1  remaining binding (binding, competition with immobilised ligand; 1 µM): 100%
C=CC(=O)Nc1cccc(-c2cnc3[nH]cc(C(=O)NC(C)(C)C)c3n2)c1  inhibition (enzyme activity, inhibitor; 0.1 µM): -1%
COc1c(Cl)cccc1Nc1c(-c2ccncc2C#C[C@@]2(C)CCCN2C(=O)/C=C/CN(C)C)[nH]c2c1C(=O)NCC2  remaining binding (cell-free assay, competition with immobilised ligand; 3 µM): 95%
Cc1cccc(O[C@H]2CCC[C@@H](C(C)CNCc3ccncc3)C2)c1 (relative stereo)  inhibition (cell-free assay, inhibitor; 10 µM): 3%
NC(=O)C[C@H]1CCc2sc3ncnc(O[C@H]4CC[C@H](N5CCOCC5)CC4)c3c21  inhibition (enzyme activity, inhibitor; 10 µM): 15%
CN1CC[C@@H](COc2cnc(C#N)cc2-c2ccn3nc(NC(=O)C4CC4)cc3c2)C1  inhibition (enzyme activity, inhibitor; 1 µM): 16%
CNC(=O)C1CCN(c2cc(C)c(F)cc2NC(=O)c2ccc(-c3cc(O)ccc3C)c(C)c2)CC1  remaining binding (binding, competition with immobilised ligand; 1 µM): 85%
C=CC(=O)N1Cc2nc(-c3cc(-c4cc(Cl)cnc4Cl)c(F)cc3F)n(-c3ccncn3)c2C1  inhibition (cell-free assay, inhibitor; 1 µM): 5.5%
CNC1C[S+]2CC[S+]3CC[S+](C1)[Ru-4]321([N]=C=S)[n]2c3ccc(OC)cc3c3c4c(c5cc(F)c[n+]1c5c32)C(=O)NC4=O (stereo not shown)  remaining binding (KinomeScan; 0.1 µM; reference: untreated): 87%

For quick reference, copied from above:
C=CC(=O)N1Cc2nc(-c3cc(-c4cc(Cl)cnc4Cl)c(F)cc3F)n(-c3ccncn3)c2C1  inhibition (cell-free assay, inhibitor; 1 µM): 5.5%
COc1cc(Nc2nccc(-c3cnn4nc(OC)ccc34)n2)cc(C(F)(F)F)c1  remaining binding (binding, competition with immobilised ligand; 1 µM): 74%
